Measured values pooled from the literature.
Protocols differ between the studies behind these lines. ± marks the error that the study gave.

C=Cc1ccc([B-]23OC(=O)C(c4ccccc4)=N[N+]2=Cc2ccc(N(CC)CC)cc2O3)cc1 (stereo not drawn) — molar absorption coefficient (toluene): 52000 M⁻¹ cm⁻¹
CC1(C)C(/C=C/C2=C(Cl)C(=C/C=C3/N(CCCCCC(=O)O)c4ccccc4C3(C)C)/C[N+](C)(C)C2)=[N+](CCCCCC(=O)O)c2ccccc21 — molar absorption coefficient (methanol): 234000 M⁻¹ cm⁻¹
O=C([O-])CN1CCN(CC(=O)[O-])CCN(CC(=O)c2ccc(-c3ccc(OCC(=O)O)cc3)cc2)CCN(CC(=O)[O-])CC1.[Eu+3] — molar absorption coefficient (PBS; pH 7.4, absorbance at 340 nm): 19600 ± 1400
CCCCN1C(=O)c2cccc3c(NCCCCCCCCCCN4CCOCC4)ccc(c23)C1=O — molar extinction coefficient (methanol): 13900 M⁻¹ cm⁻¹
CCC1=[N+]2N=C(/C=C/C=C/c3ccc(C(F)(F)F)cc3)C(=O)O[B-]2(c2ccccc2)Oc2cc(N(CC)CC)ccc21 (stereo not drawn) — molar absorption coefficient (toluene): 60000 M⁻¹ cm⁻¹
CCCCN1C(=O)c2cccc3c(NCCCCN4CCOCC4)ccc(c23)C1=O — molar extinction coefficient (toluene): 7800 M⁻¹ cm⁻¹
C=Cc1ccccc1[B-]12OC(=O)C(c3ccccc3)=N[N+]1=C(C)c1ccc(N(CC)CC)cc1O2 (stereo not drawn) — molar absorption coefficient (toluene): 44000 M⁻¹ cm⁻¹
CCCCN1C(=O)c2cccc3c(NCCCCCN4CCOCC4)ccc(c23)C1=O — molar extinction coefficient (dichloromethane): 5610 M⁻¹ cm⁻¹
CC1=N/C(=C\c2cc(F)c(O)c(F)c2)C(=O)N1Cc1ccc(CO)cc1 — molar extinction coefficient (pH 7.5): 47000 ± 2000 M⁻¹ cm⁻¹

For quick reference, copied from above:
CCCCN1C(=O)c2cccc3c(NCCCCCN4CCOCC4)ccc(c23)C1=O — molar extinction coefficient (dichloromethane): 5610 M⁻¹ cm⁻¹
